{"data": "Results collected from several papers", "note": "Each numbered part is a random draw from the data of one study; scales do not carry over between parts. Substitutions count along the parent as printed."}
{"data": "Sample 1", "target": "ATF5, bZIP domain (human)", "method": "DHFR protein complementation", "medium": "yeast", "notes": "single substitutions, most at no-binding floor", "reference": "wild-type JUN-FOS pair", "reading": "higher = stronger binding", "parent": "JUN, bZIP domain (human); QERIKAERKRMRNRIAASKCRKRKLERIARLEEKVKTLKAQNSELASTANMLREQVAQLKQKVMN; partner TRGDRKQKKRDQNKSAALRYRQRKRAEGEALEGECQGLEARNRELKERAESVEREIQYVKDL"}
{"Variant": "S47N", "binding fitness": "-1.31 natural log"}
{"Variant": "L52C", "binding fitness": "-1.51 natural log"}
{"Variant": "E32W", "binding fitness": "-1.51 natural log"}
{"Variant": "S47I", "binding fitness": "-1.58 natural log"}
{"Variant": "A49K", "binding fitness": "-1.57 natural log"}
{"Variant": "S47C", "binding fitness": "-1.49 natural log"}
{"Variant": "A46V", "binding fitness": "-1.5 natural log"}
{"Variant": "K39P", "binding fitness": "-1.48 natural log"}
{"Variant": "V56K", "binding fitness": "-1.49 natural log"}
{"Variant": "S43Q", "binding fitness": "-1.33 natural log"}
{"Variant": "A29G", "binding fitness": "-1.33 natural log"}
{"Variant": "Q55V", "binding fitness": "-1.52 natural log"}
{"Variant": "Q41N", "binding fitness": "-1.52 natural log"}
{"Variant": "Q41R", "binding fitness": "-1.46 natural log"}
{"Variant": "M51H", "binding fitness": "-1.48 natural log"}
{"Variant": "R53M", "binding fitness": "-1.46 natural log"}
{"Variant": "L52E", "binding fitness": "-1.49 natural log"}
{"Variant": "A46C", "binding fitness": "-1.45 natural log"}
{"Variant": "L45T", "binding fitness": "-1.57 natural log"}
{"Variant": "K36E", "binding fitness": "-1.56 natural log"}
{"Variant": "A29T", "binding fitness": "-1.4 natural log"}
{"Variant": "V35N", "binding fitness": "-1.42 natural log"}
{"Variant": "Q41P", "binding fitness": "-1.57 natural log"}
{"data": "Sample 2", "target": "Histone acetyltransferase KAT6A, winged helix 1, GST fusion (KAT6A, Homo sapiens, UniProt Q92794, residues 1-85)", "method": "protein binding microarray", "form": "double-stranded DNA, one strand shown", "medium": "in vitro", "concentration": "not given", "notes": "8-mer, flanks averaged, mean of 2 arrays, mostly near background", "reference": "not given", "reading": "higher = stronger binding", "Target sequence (chain)": "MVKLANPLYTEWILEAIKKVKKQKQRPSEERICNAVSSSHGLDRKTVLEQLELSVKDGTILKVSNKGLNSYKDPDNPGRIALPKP"}
{"Oligonucleotide": "TACCAACA", "E-score": -0.17}
{"Oligonucleotide": "GACTACTC", "E-score": 0.136}
{"Oligonucleotide": "CACATGAG", "E-score": -0.0586}
{"Oligonucleotide": "GCTCAGGA", "E-score": -0.141}
{"Oligonucleotide": "TCTGTTCA", "E-score": -0.157}
{"Oligonucleotide": "CCGTAGGA", "E-score": 0.199}
{"Oligonucleotide": "ACTGATAG", "E-score": -0.202}
{"Oligonucleotide": "GAAGATAA", "E-score": 0.028}
{"Oligonucleotide": "AGATCCCG", "E-score": 0.218}
{"Oligonucleotide": "GCCGAGGA", "E-score": 0.157}
{"Oligonucleotide": "CGTACAAC", "E-score": 0.0987}
{"Oligonucleotide": "CTCGGAGC", "E-score": 0.0438}
{"Oligonucleotide": "ACAAGCGA", "E-score": -0.0674}
{"Oligonucleotide": "CATCTAGG", "E-score": -0.155}
{"Oligonucleotide": "AACATGTG", "E-score": 0.00134}
{"Oligonucleotide": "GAACGGAC", "E-score": 0.199}
{"Oligonucleotide": "GTTTAACA", "E-score": -0.238}
{"Oligonucleotide": "GAACATAA", "E-score": -0.165}
{"Oligonucleotide": "TCATCAGA", "E-score": 0.00796}
{"data": "Sample 3", "target": "Interferon regulatory factor 3, full length, phosphomimetic (IRF3, Homo sapiens, UniProt Q14653, residues 1-427, S386D/S396D/S398D/S402D/T404D/S405D)", "method": "protein-binding microarray", "form": "double-stranded DNA, one strand shown", "medium": "in vitro", "concentration": "2540 nM top", "notes": "60-bp whole probe", "added": "salmon DNA 0.4 mg/ml", "reference": "random background probes", "reading": "higher = stronger binding", "shared flanks, not repeated": "GCCTAGCAC … GTCTTGATTCGCTTGACGCTGCTG", "Construct (chain)": "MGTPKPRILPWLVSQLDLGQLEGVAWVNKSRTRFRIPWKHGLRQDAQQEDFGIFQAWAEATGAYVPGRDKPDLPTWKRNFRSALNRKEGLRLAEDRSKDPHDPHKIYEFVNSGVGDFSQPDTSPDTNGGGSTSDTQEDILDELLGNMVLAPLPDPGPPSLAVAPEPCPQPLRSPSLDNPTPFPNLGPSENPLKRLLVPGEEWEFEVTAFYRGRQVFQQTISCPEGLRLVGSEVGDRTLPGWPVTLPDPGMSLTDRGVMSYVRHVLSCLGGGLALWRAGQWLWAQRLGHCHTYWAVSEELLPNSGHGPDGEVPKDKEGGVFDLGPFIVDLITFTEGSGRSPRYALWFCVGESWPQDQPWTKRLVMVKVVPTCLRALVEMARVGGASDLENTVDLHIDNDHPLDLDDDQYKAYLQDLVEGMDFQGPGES"}
{"Oligonucleotide": "TGAGATCTCAGTCTCGATTAGTGCTAG", "fitted relative affinity": "0.448 z-score"}
{"Oligonucleotide": "TTAGACCTGAGTATCGATTAGTGCTAG", "fitted relative affinity": "0.0635 z-score"}
{"Oligonucleotide": "GACGGTATCGACTAGCGGGACGTGCTA", "fitted relative affinity": "0.358 z-score"}
{"Oligonucleotide": "GACGGACTGGGGTCTCGGGACGTGCTA", "fitted relative affinity": "-1.07 z-score"}
{"Oligonucleotide": "TTAGGACTGGGTTTCGGTTGGTGCTAG", "fitted relative affinity": "2.06 z-score"}
{"Oligonucleotide": "GACGGTCTCCTTTACCTGACGTGCTAG", "fitted relative affinity": "2.24 z-score"}
{"Oligonucleotide": "GACGATATCTGACTGGAGACGTGCTAG", "fitted relative affinity": "0.0111 z-score"}
{"Oligonucleotide": "TCATTACTAAAATTTCATACTGTGCTA", "fitted relative affinity": "0.749 z-score"}
{"Oligonucleotide": "CCCTTATTCTAGCCTCCATTTGTGCTA", "fitted relative affinity": "1.64 z-score"}
{"Oligonucleotide": "CTTGTTTTACAATTTGCTTTGTGCTAG", "fitted relative affinity": "1.46 z-score"}
{"Oligonucleotide": "TTGTGTTTGGGCATTTTTCTAGTGCTA", "fitted relative affinity": "-0.555 z-score"}
{"Oligonucleotide": "TTAGATTTCGGGACTGGCTTAGTGCTA", "fitted relative affinity": "1.09 z-score"}
{"Oligonucleotide": "CCAGTGCTGCTTTGTCAAGAGTGCTAG", "fitted relative affinity": "-0.161 z-score"}
{"Oligonucleotide": "TCATGATTGAATCTCCCACTGTGCTAG", "fitted relative affinity": "-0.036 z-score"}
{"Oligonucleotide": "GACTATCTCAGACTGGAGACGTGCTAG", "fitted relative affinity": "0.411 z-score"}
{"Oligonucleotide": "TTAGGTCTCCTTACCCTTTAGTGCTAG", "fitted relative affinity": "1.97 z-score"}
{"Oligonucleotide": "TCATCTCTGGTCTTTGTACTGTGCTAG", "fitted relative affinity": "0.704 z-score"}
{"Oligonucleotide": "TCATTTAGTAGTTTCTAACTGTGCTAG", "fitted relative affinity": "1.62 z-score"}
{"Oligonucleotide": "GACGGTTTCGGGTCCGGGACGTGCTAG", "fitted relative affinity": "4.95 z-score"}
{"data": "Sample 4", "target": "Phosphate system positive regulatory protein PHO4, full length, GST-tagged (PHO4, Saccharomyces cerevisiae, UniProt P07270, residues 1-312)", "method": "competition protein-binding microarray", "form": "double-stranded DNA, one strand shown", "medium": "in vitro", "concentration": "2 µM", "notes": "whole 60-bp probe, lowest competitor level", "added": "Cbf1 competitor, 0.05 µM", "reading": "higher = stronger binding", "Residues (chain)": "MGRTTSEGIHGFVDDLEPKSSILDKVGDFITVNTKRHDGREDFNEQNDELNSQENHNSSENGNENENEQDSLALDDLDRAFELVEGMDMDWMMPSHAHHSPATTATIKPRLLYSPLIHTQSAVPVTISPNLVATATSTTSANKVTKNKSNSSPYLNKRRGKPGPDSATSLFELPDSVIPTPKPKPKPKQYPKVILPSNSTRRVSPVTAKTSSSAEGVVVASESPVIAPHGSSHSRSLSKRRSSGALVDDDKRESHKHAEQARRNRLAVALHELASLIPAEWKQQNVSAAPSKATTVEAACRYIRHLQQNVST"}
{"Oligonucleotide": "TGCGCAACAACTTTTCACGTGGAATTATGTCTAGAAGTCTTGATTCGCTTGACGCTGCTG", "fluorescence intensity [a.u.]": 12700}
{"Oligonucleotide": "TGCGCAACAACTTTTCACGTGATGTTATGTCTAGAAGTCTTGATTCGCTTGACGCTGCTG", "fluorescence intensity [a.u.]": 10900}
{"Oligonucleotide": "TCATCCAAGTCAGGCCTCGTGAAAAAGAATTCTACTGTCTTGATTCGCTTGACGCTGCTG", "fluorescence intensity [a.u.]": 5680}
{"Oligonucleotide": "AACCGCAAGTATATACACGCACACACCTATCAATCAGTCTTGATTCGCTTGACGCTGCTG", "fluorescence intensity [a.u.]": 9700}
{"Oligonucleotide": "AACGATATTTCAGATCAGGTGACGGTTGCTGGTTCAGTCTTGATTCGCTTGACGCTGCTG", "fluorescence intensity [a.u.]": 3470}
{"Oligonucleotide": "GACTTGACAGAGTGGCACGAGGCTCTGCCCATCTGTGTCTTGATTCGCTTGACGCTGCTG", "fluorescence intensity [a.u.]": 12100}
{"Oligonucleotide": "CGGGGTTAAGTTTGTCACCATACTTGCTTGCAGCAGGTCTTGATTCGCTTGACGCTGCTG", "fluorescence intensity [a.u.]": 3800}
{"Oligonucleotide": "GAACAGGATCTCCGCCATGTGAATATTTATGCATGAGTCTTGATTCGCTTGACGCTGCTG", "fluorescence intensity [a.u.]": 6070}
{"Oligonucleotide": "CGGGGTTAAGTTTGACTTGTGGGTGGCTTGCAGCAGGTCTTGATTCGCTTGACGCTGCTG", "fluorescence intensity [a.u.]": 5050}
{"Oligonucleotide": "AATTCATAATCTTTGCACGTGACTCGCATTTGATACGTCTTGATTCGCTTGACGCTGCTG", "fluorescence intensity [a.u.]": 15200}
{"Oligonucleotide": "GAGAGGACAAGGGATGACATGGCCGACGTTATAAGGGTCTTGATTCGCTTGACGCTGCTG", "fluorescence intensity [a.u.]": 3650}
{"Oligonucleotide": "CTTTCCCGATCTTGATCGGTGGGTGTAGCACATTTGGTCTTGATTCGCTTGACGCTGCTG", "fluorescence intensity [a.u.]": 3700}
{"Oligonucleotide": "TCTTGAAGGAAACGTCACCTGCGCTTGCCGATGTCTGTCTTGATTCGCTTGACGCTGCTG", "fluorescence intensity [a.u.]": 3920}
{"Oligonucleotide": "TTGAAGGTGAAGCCTTCCGTGCAAAATGCGAAAAAAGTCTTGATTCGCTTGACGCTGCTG", "fluorescence intensity [a.u.]": 3800}
{"Oligonucleotide": "CGTCCTAGCGATTGAAATGTGGGTGCCATGAGGAAGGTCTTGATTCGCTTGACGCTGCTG", "fluorescence intensity [a.u.]": 7650}
{"Oligonucleotide": "TGGAACATCGCGAACATCGTGCCGACGCTGATAGTCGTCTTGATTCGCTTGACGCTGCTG", "fluorescence intensity [a.u.]": 8840}
{"Oligonucleotide": "AAAGCGGTAATTTGTAGTGTGGGTGCAGATATCTATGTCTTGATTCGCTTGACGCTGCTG", "fluorescence intensity [a.u.]": 5740}
{"Oligonucleotide": "TAAATAATGGTTTTTCACGTGCATCGAGTCCGTACTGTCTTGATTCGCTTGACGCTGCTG", "fluorescence intensity [a.u.]": 13400}
{"Oligonucleotide": "CTTCTGTAAATTTGCTCTGTGGGTGGACGCGCCCCGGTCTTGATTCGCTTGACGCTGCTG", "fluorescence intensity [a.u.]": 3880}
{"note": "Repeated from above (sample 1):"}
{"Variant": "Q41N", "binding fitness": "-1.52 natural log"}
{"Variant": "A29T", "binding fitness": "-1.4 natural log"}
{"Variant": "A46C", "binding fitness": "-1.45 natural log"}
{"Variant": "S43Q", "binding fitness": "-1.33 natural log"}
{"Variant": "Q41P", "binding fitness": "-1.57 natural log"}
